Measurements collected from several papers.
A part holds a random share of what one study measured.

Series 1
Target: Interferon regulatory factor 5, full length, phosphomimetic (IRF5, Homo sapiens, UniProt Q13568-2, residues 1-514, S451D/S453D/S456D/S462D)
Method: protein-binding microarray
Molecule type: double-stranded DNA, one strand shown
Medium: in vitro
Tested at: 940 nM top
Setting: 60-bp whole probe
Added: salmon DNA 0.4 mg/ml
Baseline: random background probes
Reading: higher = stronger binding
Quantity: fitted relative affinity
All sequences stand within: GCCTAGCAC … GTCTTGATTCGCTTGACGCTGCTG
TTAGGTATCGACTATCGCTTAGTGCTA: 5.83 z-score
GACGATATCGGGTATCGGGACGTGCTA: 1.08 z-score
TTAGGTTTCGACTTTCGTTTAGTGCTA: 8.89 z-score
TTTGAGCTCTGTCTGGGATGGTGCTAG: -0.844 z-score
GACGGTCTCCTACTGCTCACGTGCTAG: -0.262 z-score
ATAGAACTGGGGTATCGATTAGTGCTA: 2.9 z-score
TTATGTTTCCTTCTCCTTTAGTGCTAG: 2.02 z-score
GCCGGTATCGACTTTCGGGACGTGCTA: 5.17 z-score
GACGATATGAGTATCGAGACGTGCTAG: 1.62 z-score
TTAGGTATCGGTCTAGGTTAGTGCTAG: 10.5 z-score
TCCTCTTTCACTGCTCCATACGTGCTA: 2.31 z-score
TTAGGTTTCGGTCTTGGTTAGTGCTAG: 14.7 z-score
TCACCTCTCTGTCCCCCTTTGTGCTAG: 1.32 z-score
TTAGGACTGGGGTATCGATTAGTGCTA: 2.62 z-score
TTAGGTCTCCTTTTCCTTGAGTGCTAG: 0.0764 z-score
TTAGAACAGGGGTATCGATTAGTGCTA: 2.75 z-score
GACGTTTTTCATTTTTTTTTGTGCTAG: 1.26 z-score
TTAGGTATCGGTTTGGGTTAGTGCTAG: 10 z-score
GACAGTATCCTTATCCTGACGTGCTAG: 0.494 z-score
TCATATCTGTGTTATTAAACTGTGCTA: 0.798 z-score
TCACCTCTAACTTCCCAACTGTGCTAG: 1.01 z-score
GACGGACTGCTACTGCAGACGTGCTAG: -0.805 z-score

Series 2
Target: Hepatocyte nuclear factor 3-alpha (Foxa1, Mus musculus, UniProt P35582, residues 1-468, full length assumed)
Method: EMSA with sequencing
Molecule type: double-stranded DNA, one strand shown
Medium: in vitro
Tested at: 10 and 20 nM
Setting: whole designed probe, mean of two concentrations, ends assumed
Baseline: negative control set to 0
Reading: higher = stronger binding
Quantity: normalised bound fraction
All sequences stand within: GTGAGCGGTGCCCATTGATGGGGAAC … TTTCACTGGGATCGTGGGGAC
Target sequence (chain): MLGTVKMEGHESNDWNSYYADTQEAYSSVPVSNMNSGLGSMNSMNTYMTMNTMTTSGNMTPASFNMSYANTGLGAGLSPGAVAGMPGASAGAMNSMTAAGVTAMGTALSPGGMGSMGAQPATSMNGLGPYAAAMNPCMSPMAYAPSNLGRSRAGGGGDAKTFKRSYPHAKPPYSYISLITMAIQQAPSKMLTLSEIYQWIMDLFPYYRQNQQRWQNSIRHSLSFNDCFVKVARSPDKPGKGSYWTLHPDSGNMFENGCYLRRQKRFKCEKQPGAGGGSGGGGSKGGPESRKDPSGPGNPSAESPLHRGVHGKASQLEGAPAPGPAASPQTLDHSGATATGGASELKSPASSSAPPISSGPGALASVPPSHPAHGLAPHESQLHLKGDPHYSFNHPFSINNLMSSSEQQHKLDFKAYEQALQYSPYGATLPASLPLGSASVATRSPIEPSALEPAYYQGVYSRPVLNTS
ATTCATGTGAAAATTACGATAATAACACATATCTCACCCAGAAGAAAAAAAAATTGTGAAGAAACTTAGAAGTTCTAAAAATATAAGGTATAATGTAATCTTGAATAACAATAACATTTATAGCTTGATGTTTTTTCAGGCCTTGTAATTTTCAAAATATGTGTATATAGTTAGCTGATTAGAAGAAAATATG: 0.032 ratio
ATCTTCCCCCTCTTCCTTCCACGGCCCACTCACCTTCCCGGGTTATTTGCAGATAGGAAAATAAATAAAGCCGGCATTCGTTAACCCTCTTCTGGCGCAAACTGCTGTTTGCTCTGGATGAATCATGGTCCTTTGGCGACGCCAGGCTCCGGGAGAGCAAAGCACCGTGTCAGGGCCATGATCCGGGGTGGCC: 0.314 ratio
TTCACTTTTTTTTCTGCTGTCTTGAACTCCTTTTCCTCACTCTAAATATTTTTTACAGCATTTACTATCTTCTAACATATTATAAAATTTCTTGTTTACTTATATTTATTCTCAATATCCTCCTATTAAGTCAGAGTGTCTGCCCTTGGTATGCATTAATATGTATTTAAGGAATTGATAAATTAGTTCTGCT: 0.404 ratio
TAATTTGGCTTTCCTTGTAAAACTCTTTTTAATTTTTAATTTTAAATGCCATGTAATACACTTGTTCTCTCTTTGAACTGAGATTTATCAATGTAATCTAGAAGAACAATTCAATTCATTAAATTAAAGAGGATATTTGTTCCAGGCTGAAAAATTAAGTGGTTTACTACACATAAATATAAAATTTCCTTCA: -0.0307 ratio
GATTCCAGCCAGCAGAATAGGAATTTCAGAATACGATAAGGAGATGTTAAGGAAGGTCAGGCAGTAAAAAGAGGTTTGCTGACTCATGTGGTTTGTTGACTTAGCAAGTCAGGGAGAAGTCAATTGTTTGCTCTCCTGTTTTACAGTCTTTAGGTGTGGGCCAGCCCAGGGCCATTGATAGTCATTTTAGCCA: 0.458 ratio
TTTCCAGCCCTTAGTTTCTGGCATTTAACCTGACTCTGGTCCCTGAATGGCATGGGAGTGCTTTCAACCACTGACTCATTCATTCATGCCACTTGTTTGCTTTTCTGTCACATTCTGATCTACAGAGATCTTTATTTGCTTTGTGTTTCCAATGGAGAAAGAGCTTGGGAAGGGAGGATCCTAATTGTCTAAA: 0.489 ratio
GGGTCCCGGGCGGCGGCAGGAATGCAGGAATGCGCACAGGCTGTGGGCGGCCAGGAGGGAGTCCCGGCGCCTGCCCCGGCGGAAGTGAGTCTTAGAGTACCCTGTCCAACACCTCCCCCCGCCAGCGCGGAAGGCCGGGCTACCTGCGCGCCTGGCAGCGCCTGGCAGCCGGCTGGGTGGGGCGCAGGGGAGC: -0.0638 ratio
TGACGATGTCTCCATTAGCTGTGATCAGCAAGAAGGCTGCATGAAAGAGTTGCCAGGCCCACAGTAAATTGCTTTATCGGGGAATAACTTTATGTTTACATAGAGGTTTTGGGGTTATCTATTACTGCATAGAATTTAGCCAAGTTTAACTAATAATATGTTTAATTCTCATCTTATAAGGCAAAGCAGATAT: 0.46 ratio

Series 3
Target: RNA binding protein fox-1 homolog 2, RRM domain, GST-SBP tag (RBFOX2, Homo sapiens, UniProt O43251-10, residues 100-194)
Method: RNA Bind-n-Seq
Molecule type: RNA
Medium: in vitro
Tested at: 365 nM
Setting: natural RNA segment, single round, ends assumed
Baseline: no-protein control
Reading: higher = stronger binding
Quantity: RBNS enrichment (R)
All sequences stand within: GGGAGUUCUACAGUCCGACGAUC … UGGAAUUCUCGGGUGCCAA
CUGAUGGUUCAAGGGGAGGGGGGAUGUUGGCCAGGCCCCAGGGCACAGCCCUGACACAGGUGUGGCUACUGGAGGGGCCUUCAUACCUGCGGCCCCAAAGCCCCUGGGCU: 0.498
UGUAAAAGAAAUCAUGUCCAUACACUUUGUUGCAAGAUGUGAAUUAUUGACACUGAACUUAAUAACUGUGUACUGUUCGGAAGGGGUUCCUCAAAUUUUUUGACUUUUUU: 0.501
AGAGCAGGCAUGAGCUGGGCUGUGGUGCAGAGCAAGCAGACCCAGCCACACUGCUCAAAGGUCCCUGCGUGGGGAGGUGUCACACCAGGGGCACACCCAGGGCCACCUGG: 0.543
AAAAAAAUCAGUGUUUAAAUAAAGACCUAUGUACUUAAUCCUUUAACUCUGCGGAUAGCAUUUGGUAGGUAGUGAUUAACUGUGAAUAAUAAAUACACAAUGAAUUCUUC: 0.741
AAAAAAAUGUACCUGAUUGCUCCCAAUUAUGAGAGGAUUGGGUGGGCAGGGGAACUCCUAAAAUAAUACAUGACCACUUCCUCAUUUCUGGGGAAGGAAAGGAGACUAGA: 0.432
AGACUUCCUGUUAGGGGCAAUGUGUUCAUUAUAAAGGCAUAAGGACACCACACCAGCUUGUUGGUUCCUGAUGGUUUUCUUAGACUUCUCCGCUCCCCCCACAUCCCAGC: 0.558
UGUCAGUUUUCUAUUUGCCCUCUUGAGUACAGGGAUGGAUGGAUGGCUGCUCAACACACUCCUCCCCUCUCUCCUUUAAGCUGUGUCCAGUGAAAGCUGUCCUUCCUGUA: 0.461
AGAAAUAACUUUGAAGGGAAAAAAGUCAUUAGCUUAGAAUAUGAAGCAUAUCUACCCAUGGCGGAAAAUGAAGUCAGAAAGAUUUGUAGUGACAUUAGGCAGAAAUGGCC: 0.641
UACUCUGAUGAAAGGACUCUUUCAUAAGCAUAUUUAUAGCUUUCUAAUCUAUACACAGUCUAUCCAUAGAUGCAUAUUUUACCCCAACUGGCUAGAGAUUUAUUUGUUGU: 1.58
GACAGUUCCAAUGAGAUAACACUAUCAGCUUGUCUGGUAGAGCACCCCCUGCCUCACAUGGGGAGCACUGUUCAGAGCACACACUGGGGAGUUCUGACUUUGGCCAUUAG: 0.412
CUAAGAAGGGAUUUUUGAAUAUGCUAUCUACCUGGAAUCUCUCUCUCAACAAAAGGUAUAUGCCUUCAGGAAUGAUAUAAUCUGUCCCAUUUUCGAGGCUCCUUAUAAGG: 0.445
CCAACCUUCGCACCCAUCCGCCCCCGCAGGCCUGGGGAGAACACAGAUAUGCUUGCACAGGCUGUGGAGUGUGACUUGUUGGAGACUGGACUAGGUGUUGUGUGGAAGUA: 1.51

Series 4
Target: PABPC1L2, full length, GST fusion (mouse, UniProt A0ABA7IW68)
Method: RNAcompete
Molecule type: RNA
Medium: in vitro
Tested at: 20 nM
Setting: 7-mer, probes averaged, single round
Baseline: mean of 7-mers
Reading: higher = stronger binding
Quantity: 7-mer Z-score
Construct (chain): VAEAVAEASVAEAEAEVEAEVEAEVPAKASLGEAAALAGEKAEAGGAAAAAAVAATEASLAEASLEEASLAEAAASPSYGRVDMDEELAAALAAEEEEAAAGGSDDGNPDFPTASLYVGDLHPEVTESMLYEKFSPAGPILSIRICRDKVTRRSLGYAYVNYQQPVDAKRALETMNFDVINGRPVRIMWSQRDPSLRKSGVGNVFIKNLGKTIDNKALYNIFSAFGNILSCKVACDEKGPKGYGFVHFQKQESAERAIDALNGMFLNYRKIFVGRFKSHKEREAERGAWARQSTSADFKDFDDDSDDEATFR
GUGGCUU: -0.0301
UGGUCGC: -0.251
CGAUGUC: -0.206
CGCACGC: -0.19
GAACGUA: -0.0736
GAUGGAG: -0.00108
UUGGACG: -0.0844
AAGCCAU: -0.0663
AUCGAUC: -0.0935
GUGCUAG: 0.0551
AACUGUC: -0.175
GUGGCCA: -0.132
GAGAGAU: -0.0355
AACGACC: 0.122
UGGAAAU: 0.0497
CAUUGCU: -0.251
GCGUAGG: 0.00617
AGGGAUU: 0.0932
UUACGCG: -0.244
